Assay results of several laboratories.
Each line is one published result; not all experiments were run side by side. ± gives the spread as reported. ≈ marks a conversion by molar mass, not a printed value.

Compound	organism	assay	system	setting	scale	endpoint	value
CC[C@H](C)[C@H](NC(=O)[C@H](CCCCN)NC(=O)[C@H](CCCCN)NC(=O)[C@H](CC(C)C)NC(=O)[C@H](CCCCN)NC(=O)[C@H](CCC(=O)O)NC(=O)[C@H](CCCCN)NC(=O)[C@@H](NC(=O)[C@H](CCCCN)NC(=O)[C@H](CC(N)=O)NC(=O)[C@H](CCCNC(=N)N)NC(=O)[C@H](Cc1ccccc1)NC(=O)[C@H](CCCCN)NC(=O)[C@H](CCCNC(=N)N)NC(=O)[C@H](CC(C)C)NC(=O)[C@H](CCCNC(=N)N)NC(=O)[C@H](CCCCN)NC(=O)[C@H](CCCNC(=N)N)NC(=O)[C@H](CC(C)C)NC(=O)[C@@H](N)CC(C)C)[C@@H](C)CC)C(=O)NCC(=O)N[C@@H](CCC(N)=O)C(=O)N[C@@H](CCCCN)C(=O)N[C@H](C(=O)N[C@@H](CCC(N)=O)C(=O)NCC(=O)N[C@@H](Cc1ccccc1)C(=O)N[C@H](C(=O)N1CCC[C@H]1C(=O)N[C@@H](CCCCN)C(=O)N[C@@H](CC(C)C)C(=O)N[C@H](C(=O)N1CCC[C@H]1C(=O)N[C@@H](CCCNC(=N)N)C(=O)N[C@H](C(=O)N[C@@H](CCC(=O)O)C(=O)N[C@@H](CO)C(=O)O)[C@@H](C)O)C(C)C)C(C)C)[C@@H](C)CC	Staphylococcus warneri	inhibition zone	ATCC 1.2824	LB agar, overnight		lethal concentration	1 µM
C=CCc1ccc(OCc2ccccc2)c(OC)c1	Spodoptera frugiperda		larvae	50 µg/mL	baseline: untreated control	antifeedant index	28.5%
CC[C@H](C)[C@H](NC(=O)[C@H](CCCCN)NC(=O)[C@H](CCCCN)NC(=O)[C@H](CC(C)C)NC(=O)[C@H](CCCCN)NC(=O)[C@H](CCC(=O)O)NC(=O)[C@H](CCCCN)NC(=O)[C@@H](NC(=O)[C@H](CCCCN)NC(=O)[C@H](CC(N)=O)NC(=O)[C@H](CCCNC(=N)N)NC(=O)[C@H](Cc1ccccc1)NC(=O)[C@H](CCCCN)NC(=O)[C@H](CCCNC(=N)N)NC(=O)[C@H](CC(C)C)NC(=O)[C@H](CCCNC(=N)N)NC(=O)[C@H](CCCCN)NC(=O)[C@H](CCCNC(=N)N)NC(=O)[C@H](CC(C)C)NC(=O)[C@@H](N)CCCNC(=N)N)[C@@H](C)CC)C(=O)NCC(=O)N[C@@H](CCC(N)=O)C(=O)N[C@@H](CCCCN)C(=O)N[C@H](C(=O)N[C@@H](CCC(N)=O)C(=O)NCC(=O)N[C@@H](Cc1ccccc1)C(=O)N[C@H](C(=O)N1CCC[C@H]1C(=O)N[C@@H](CCCCN)C(=O)N[C@@H](CC(C)C)C(=O)N[C@@H](CCC(N)=O)C(=O)N1CCC[C@H]1C(=O)N[C@@H](CO)C(=O)N[C@@H](CCCCN)C(=O)N[C@@H](CCC(N)=O)C(=O)N[C@@H](CO)C(=O)O)C(C)C)[C@@H](C)CC	Alcaligenes faecalis	inhibition zone	CGMCC 1.184			lethal concentration	2.65 µM
C/C=C/c1ccc(OC(C)=O)c(OC)c1	Spodoptera frugiperda		larvae	250 µg/mL	baseline: untreated control	antifeedant index	54.5%
CC(=O)O[C@H]1C[C@@H](C)O[C@H]2O[C@@H]3C[C@@H]4CC[C@@H]5[C@H](CC[C@]6(C)[C@@H](C7=CC(=O)OC7)CC[C@]56O)[C@@]4(C)C[C@H]3O[C@]21O	Schistosoma mansoni	microscopic viability score	adult worms	1 µM, 72 h		viability effect	84%
CC(=O)C1=C(O)C=C2Oc3c(C(C)=O)c(O)c(C)c(O)c3[C@@]2(C)C1=O	Candida tropicalis	broth microdilution	ATCC 750 fluconazole and amphotericin B resistant	24 and 48 h		MIC99	17.4 µM (≈ 6 µg/mL)
Cc1nc2c(cnn2C(C)C)cc1C(=O)NCc1ccc(C(C)O)c(C)n1 (stereo not shown)	Drosophila melanogaster		APP transgenic (Alzheimer model)	in food, 100 µM, 168 h, from adult day 7		median survival	40 days
C=Cc1cc(OC)c2c(c1)c(=O)oc1c2cc(OC)c2c(O)ccc([C@@H]3O[C@H](C)[C@H](O)[C@@](C)(O)[C@H]3O)c21	Staphylococcus aureus		MRSA USA300, BALB/c mouse, epicutaneous infection	dose not given, day 16	baseline: vehicle	lesion size	decreased
C=C(C)[C@@H]1CC[C@]2(C(=O)NC(CO)Cc3ccccc3)CC[C@]3(C)[C@H](CC[C@@H]4[C@@]5(C)CCCNC(C)(C)[C@@H]5CC[C@]43C)[C@@H]12 (stereo partly shown)	Human alphaherpesvirus 1		HFF, E-377		baseline: CC50 over EC50	selectivity index	< 3
CC[C@H](C)[C@H](NC(=O)[C@H](CO)NC(=O)[C@H](CO)NC(=O)[C@H](Cc1ccccc1)NC(=O)CN)C(=O)N[C@@H](Cc1ccccc1)C(=O)N[C@@H](CCCNC(=N)N)C(=O)NCC(=O)N[C@H](C(=O)N[C@@H](C)C(=O)N[C@@H](CCCCN)C(N)=O)C(C)C	Escherichia coli		ATCC 8739	added: 0.5 mM KCl		MBC	> 128 µM
N#CCNC(=O)c1cnccc1C(F)(F)F	Drosophila melanogaster	negative geotaxis		20 µM, 10 s, 10% sucrose feed, 3 h		climbing flies	38 ± 6%
CCn1c2ccccc2c2cc(/C=N/NC(=O)Cn3ccc(=O)c4ccccc43)ccc21	Rhizoctonia solani	microbial growth		50 µg/mL		inhibition	21.4%
CC(C)C[C@H](NC(=O)[C@H](C)NC(=O)[C@H](CCCNC(=N)N)NC(=O)[C@H](CO)NC(=O)[C@H](Cc1ccc(O)cc1)NC(=O)[C@H](C)NC(=O)[C@H](CCCNC(=N)N)NC(=O)[C@H](CCCNC(=N)N)NC(=O)[C@H](CCCNC(=N)N)NC(=O)[C@H](CCC(N)=O)NC(=O)[C@H](CCCNC(=N)N)NC(=O)[C@H](CCCNC(=N)N)NC(=O)[C@H](CCCCN)NC(=O)[C@H](CCCCN)NC(=O)[C@@H](N)CCCNC(=N)N)C(=O)N[C@@H](C)C(=O)N[C@@H](CCCNC(=N)N)C(=O)N[C@@H](CCC(N)=O)C(=O)N[C@@H](CC(C)C)C(=O)N[C@@H](CO)C(=O)N[C@@H](CO)C(=O)O	enterovirus A71	western blot	RD	50 µM, 2 h pretreatment then 9 h		VP1 protein level reduction	~60%
CC(C)C[C@@H]1NC(=O)[C@H](CCCCN)NC(=O)[C@H](C(C)C)NC(=O)[C@@H]2CCCN2C(=O)[C@@H](Cc2ccc(O)cc2)NC(=O)[C@H](CC(C)C)NC(=O)[C@H](CCCCN)NC(=O)[C@H](C(C)C)NC(=O)[C@H](CCCCN)NC(=O)[C@H](CC(C)C)NC(=O)[C@@H]2CCCN2C(=O)[C@@H](Cc2ccc(O)cc2)NC(=O)[C@H](CCCCN)NC1=O	Gram-negative bacteria			24 h, 7 strains		MIC geometric mean	26.3 µg/mL (≈ 16.7 µM)
C=CCc1ccc(OCC=C(C)C)c(OC)c1	Spodoptera frugiperda		larvae	1000 µg/mL	baseline: untreated control	antifeedant index	63.7%
COc1ccc(S(=O)(=O)NCc2c[nH]nc2-c2cccs2)cc1	Plasmodium falciparum					EC90	35.5 µM
CC[C@@H](N[C@@H](C)CC(N)=O)c1ccc(Cl)c(Oc2ccccc2)c1F	Hepatitis C virus	viral replication, luciferase	Huh-7, V630L mutant replicon		baseline: wild type replicon	EC50 fold change	30 fold
CC[C@H](C)[C@H](NC(=O)CN)C(=O)N[C@@H](Cc1c[nH]c2ccccc12)C(=O)N[C@@H](CCCCN)C(=O)N1CCC[C@H]1C(=O)N[C@H](C(=O)N[C@@H](Cc1ccccc1)C(=O)N[C@H](C(=O)N[C@@H](Cc1ccc(O)cc1)C(=O)N[C@@H](CC(C)C)C(=O)N[C@@H](C)C(=O)N[C@H](C(=O)N1CCC[C@H]1C(=O)N[C@H](C(=O)N[C@@H](Cc1c[nH]cn1)C(=O)N[C@@H](Cc1ccccc1)C(=O)N[C@@H](CCCCN)C(=O)N[C@@H](Cc1ccccc1)C(=O)O)[C@@H](C)CC)[C@@H](C)O)[C@@H](C)O)[C@@H](C)CC	Gram-negative bacteria	MIC		concentration not given		antibacterial activity	active
C=CCc1ccc(OCC(=C)C)c(OC)c1	Spodoptera frugiperda	insecticidal activity	larvae	topical		LD50	1930 mg/kg
COc1ccc(Br)cc1/C=N/NC(=O)Cn1ccc(=O)c2ccccc21	Botrytis cinerea	microbial growth		50 µg/mL		inhibition	14.6%
C[C@@](O)(C(F)F)[C@H](NC(=O)c1ccc(C#CC#CC2CC2)cc1)C(=O)NO	Citrobacter freundii	agar dilution	ESBL and carbapenemase producers			MIC90	0.125 µg/mL (≈ 0.332 µM)
CC[C@H](C)[C@H](NC(=O)[C@H](CCCNC(=N)N)NC(=O)CNC(=O)[C@H](CCCCN)NC(=O)[C@@H](NC(=O)CNC(=O)[C@H](Cc1c[nH]cn1)NC(=O)[C@@H](NC(=O)[C@H](CC(C)C)NC(=O)[C@H](CO)NC(=O)CNC(=O)[C@H](CC(C)C)NC(=O)CN)C(C)C)C(C)C)C(=O)N[C@@H](Cc1ccccc1)C(=O)N[C@@H](CC(N)=O)C(=O)N[C@@H](Cc1c[nH]cn1)C(=O)N[C@@H](CCCCN)C(=O)N[C@@H](CC(C)C)C(=O)NCC(=O)N[C@@H](CCSC)C(=O)N[C@@H](C)C(=O)N[C@@H](CO)C(=O)N[C@H](C(=O)N[C@H](C(=O)N[C@@H](CCCCN)C(=O)NCC(=O)N[C@H](C(=O)N[C@@H](CC(C)C)C(=O)N[C@@H](CCC(N)=O)C(=O)N[C@@H](CCCCN)C(=O)N[C@@H](CC(C)C)C(=O)N[C@@H](Cc1c[nH]c2ccccc12)C(=O)N[C@@H](CCC(=O)O)C(=O)O)C(C)C)[C@@H](C)CC)C(C)C	Gram-negative bacteria	MIC		concentration not given		antibacterial activity	active
CC[C@H](C)[C@H](NC(=O)[C@H](CCCCN)NC(=O)[C@H](CCCCN)NC(=O)[C@H](CC(C)C)NC(=O)[C@H](CCCCN)NC(=O)[C@H](CCC(=O)O)NC(=O)[C@H](CCCCN)NC(=O)[C@@H](NC(=O)[C@H](CCCCN)NC(=O)[C@H](CC(N)=O)NC(=O)[C@H](CCCNC(=N)N)NC(=O)[C@H](Cc1ccccc1)NC(=O)[C@H](CCCCN)NC(=O)[C@H](CCCNC(=N)N)NC(=O)[C@H](CC(C)C)NC(=O)[C@H](CCCNC(=N)N)NC(=O)[C@H](CCCCN)NC(=O)[C@H](CCCNC(=N)N)NC(=O)[C@H](CC(C)C)NC(=O)CN)[C@@H](C)CC)C(=O)NCC(=O)N[C@@H](CCC(N)=O)C(=O)N[C@@H](CCCCN)C(=O)N[C@H](C(=O)N[C@@H](CCC(N)=O)C(=O)NCC(=O)N[C@@H](Cc1ccccc1)C(=O)N[C@H](C(=O)N1CCC[C@H]1C(=O)N[C@@H](CCCCN)C(=O)N[C@@H](CC(C)C)C(=O)N[C@@H](C)C(=O)N1CCC[C@H]1C(=O)N[C@@H](CCCNC(=N)N)C(=O)N[C@H](C(=O)N[C@@H](CC(=O)O)C(=O)N[C@@H](Cc1ccc(O)cc1)C(=O)O)[C@@H](C)O)C(C)C)[C@@H](C)CC	Alcaligenes faecalis	inhibition zone	CGMCC 1.184			lethal concentration	1.8 µM
C/C=C/c1ccc(OCc2ccccc2)c(OC)c1	Spodoptera frugiperda	insecticidal activity	larvae	topical		LD50	4250 mg/kg
CC[C@@H](C)[C@@H](NC(=O)[C@@H](C)NC(=O)[C@@H](CCCCN)NC(=O)[C@@H](CC(C)C)NC(=O)[C@@H](CC(C)C)NC(=O)[C@H](NC(=O)[C@@H](CCCCN)NC(=O)[C@@H](CC(C)C)NC(=O)[C@@H](C)NC(=O)[C@@H](CCCCN)NC(=O)[C@@H](CCCCN)NC(=O)[C@@H](CCCCN)NC(=O)[C@@H](C)NC(=O)[C@@H](CCCCN)NC(=O)[C@@H](CO)NC(=O)[C@@H](Cc1ccccc1)NC(=O)[C@H](NC(=O)[C@@H](CCCCN)NC(=O)[C@@H](CC(C)C)NC(=O)[C@@H](Cc1ccccc1)NC(=O)[C@@H](CO)NC(=O)[C@@H](CCCCN)NC(=O)[C@@H](Cc1c[nH]c2ccccc12)NC(=O)[C@@H](CCCCN)NC(C)=O)[C@H](C)O)[C@H](C)O)C(=O)N[C@H](CO)C(=O)N[C@H](CCCCN)C(N)=O	Acinetobacter baumannii		11 isolates		baseline: HC50 over geometric mean MIC	therapeutic index	102

Some of these lines once more:
Compound	organism	assay	system	setting	scale	endpoint	value
COc1ccc(S(=O)(=O)NCc2c[nH]nc2-c2cccs2)cc1	Plasmodium falciparum					EC90	35.5 µM
CC[C@@H](N[C@@H](C)CC(N)=O)c1ccc(Cl)c(Oc2ccccc2)c1F	Hepatitis C virus	viral replication, luciferase	Huh-7, V630L mutant replicon		baseline: wild type replicon	EC50 fold change	30 fold
